Measurements from different studies.
Compare with care: the assays were run in different laboratories. Numbers after ± are the reported error.

Compound | test | system | setting | scale | quantity | value
NCCCC(=O)OCC(=O)c1cc(F)c(O)c(F)c1F.O=C(O)C(F)(F)F | photolysis, refers to: GABA appearance | aqueous HEPES buffer with LiClO4 | pH 8.2 |  | quantum yield | 0.02
N=C(N)NCCC[C@@H]1NC(=O)[C@H](Cc2c[nH]c3ccccc23)NC(=O)[C@@H](CC2CCCCC2)NC(=O)[C@@H]2CCCN2C(=O)[C@@H](NC(=O)CCc2ccccc2)CCCNC1=O |  | C57BL/6J mouse, spinal cord | intravenous, 1 mg/kg, single dose, two-compartment model |  | redistribution rate constant (K21) | 6.59 h⁻¹
CCCn1c(=O)c2[nH]c(-c3ccc(OCC(=O)NCCNS(=O)(=O)c4cccc5c(N(C)C)cccc45)cc3)nc2n(CCC)c1=O |  |  | 50 µM | reference: HBS over methanol | emission intensity ratio | 0.26
CC/C=C\C/C=C\C/C=C\C/C=C\C/C=C\C/C=C\CCC(=O)Nc1ccn(C2OC(CO)C(O)C2(F)F)c(=O)n1 (stereo not shown) |  | octanol |  |  | stability time | ≥ 18 h
CCCCCCCCCCCCCCCCCC(=O)N[C@@H](CCCCN)C(=O)N[C@@H](CCCCN)C(=O)N[C@@H](CCCCN)C(=O)N[C@@H](CCCCN)C(=O)N[C@@H](CCCCN)C(N)=O | dynamic light scattering | self-assembled micelles | 25 °C |  | hydrodynamic radius | ~166 nm
CN1CCC[C@]1(C)/C=C/S(=O)(=O)NC(=O)Nc1c2c(cc3c1CCC3)CCC2 |  | human, urine | oral, 250 mg single dose |  | percent of dose in urine | 69.1%
O=C(O)[C@@H]1C[C@@H](O)CN1C(=O)[C@@H]1CCCN1 | potentiometric titration | water | 40 °C, 0.15 mol/dm3 NaCl |  | pKa2 | 5.23
CCCCC/C=C/C=C/C(=O)NCC(C)C |  | rat, sham-operated, plasma | oral, 50 mg/kg |  | MRT | 2.78 ± 0.56 h
CC(=O)N[C@H](CC(=O)O)C(=O)N[C@H](Cc1c[nH]c2ccccc12)C(=O)N[C@H](Cc1ccccc1)C(=O)N[C@H](CCCCN)C(=O)N[C@H](C)C(=O)N[C@H](Cc1ccccc1)C(=O)N[C@H](Cc1ccc(O)cc1)C(=O)N[C@H](CC(=O)O)C(=O)N[C@H](CCCCN)C(=O)N[C@@H](C(=O)N[C@H](C)C(=O)N[C@H](CCC(=O)O)C(=O)N[C@H](CCCCN)C(=O)N[C@H](Cc1ccccc1)C(=O)N[C@H](CCCCN)C(=O)N[C@H](CCC(=O)O)C(=O)N[C@H](C)C(=O)N[C@H](Cc1ccccc1)C(N)=O)C(C)C |  | statin-treated high-risk CHD women, plasma | oral, 500 mg daily, day 1, 0 to 2 h, mean, all subjects |  | Cmax | 178 ng/mL
COc1ccc(/C=C/c2ccc(-c3ccc(C)cn3)nc2)cc1 |  | toluene | with: quinine bisulfate reference |  | fluorescence quantum yield | 0.54
Cn1c(=O)oc2ccc(-c3ccc(CC(C#N)NC(=O)C4CNCCCO4)c(F)c3)cc21 (stereo not shown) | refers to: blood bilirubin increased | human volunteers | oral, 40 mg, single ascending dose fed |  | treatment-related adverse event incidence | 0%
CN(C)c1cccc2c(S(=O)(=O)NCCCCCCC(=O)NO)cccc12 | fluorescence |  |  |  | emission wavelength | 500 nm
CCCC(CCC)NC(=O)c1ccc(OS(=O)(=O)O)c(OC)c1 |  | male Sprague-Dawley rats, plasma | oral, 200 mg/kg of parent drug | reference: 200 over 20 mg/kg dose | Cmax ratio | 3.96
COCCOCCOCCOCCC(=O)NCc1cc(CNC(=O)CCOCCOCCOCCOC)cc(-c2cc3cc4nc(c(-c5ccc(CCC(=O)O)cc5)c5[nH]c(cc6nc(c(OC)c2[nH]3)CC6(C)C)cc5-c2cc(CNC(=O)CCOCCOCCOCCOC)cc(CNC(=O)CCOCCOCCOCCOC)c2)CC4(C)C)c1 |  | water with 5% DMF | room temperature |  | B band absorption maximum | 362 nm
CCCC[C@H](NC(=O)CNC(=O)CNC(=O)CN1CCN(CC(=O)O)CCN(CC(=O)O)CC1)C(=O)N[C@H]1CC(=O)NCCCC[C@@H](C(N)=O)NC(=O)[C@H](Cc2c[nH]c3ccccc23)NC(=O)[C@H](CCCNC(=N)N)NC(=O)[C@@H](Cc2ccccc2)NC(=O)[C@H](Cc2c[nH]cn2)NC1=O [gallium-67 labelled] |  | C57 mice, B16/F1 melanoma | 24 h |  | tumour to skin uptake ratio | 8.27
CCCCn1ccc(=O)c(O)c1C |  | octanol/MOPS buffer | pH 7.4 |  | partition coefficient | 5.02
C[C@H](NC(=O)COC(=O)[C@H](C)NC(=O)CO)C(=O)O |  | water | pH 7, 65 °C |  | depolymerization half-life | 36 s

Compound | test | system | setting | scale | quantity | value
NCCCC(=O)OCC(=O)c1ccc(O)c(F)c1F.O=C(O)C(F)(F)F | photolysis, refers to: GABA appearance | unbuffered water |  |  | quantum yield | 0.24
CCCC[C@H](NC(=O)CNC(=O)CNC(=O)CN1CCN(CC(=O)O)CCN(CC(=O)O)CCN(CC(=O)O)CC1)C(=O)N[C@H]1CC(=O)NCCCC[C@@H](C(N)=O)NC(=O)[C@H](Cc2c[nH]c3ccccc23)NC(=O)[C@H](CCCNC(=N)N)NC(=O)[C@@H](Cc2ccccc2)NC(=O)[C@H](Cc2c[nH]cn2)NC1=O [copper-64 labelled] |  | female C57 mouse, B16/F1 melanoma | intravenous, 0.037 MBq, 24 h | reference: tumour over stomach | uptake ratio | 4.93
COC(=O)c1ccc2c(c1)NC(=O)/C2=C(\Nc1ccc2c(c1)CCN2C(=O)CN1CCOCC1)c1ccccc1 |  | beagle dog, plasma | oral, 50 mg/kg |  | half-life | 6.71 h
O=c1nc(NO)ccn1[C@@H]1O[C@H](CO)[C@@H](O)[C@H]1O | RT-PCR, refers to: CYP3A9 | rat, arthritis model, liver | oral, 80 mg/kg twice daily, 5 days | reference: untreated arthritic rats | mRNA level | 0.5 fold
Cc1ccc(C2=C(c3ccc([18F])cc3)C(=O)OC2(C)C)cc1 | dynamic PET/CT | female nude mouse, SK-OV-3/COX-1 peritoneal tumour | retro-orbital, scan 0 to 9 min |  | time of maximal tumour uptake | ~5 min
CC(C)c1cnc(-c2cc(Cl)ccc2F)cc1Nc1ccncc1C(=O)NC(CO)CO |  | patients, phase I monotherapy | oral, dose not given, grade 4 |  | patients with AST increase | 0%
O=C(C[c-]1cccc1)Oc1ccc(-n2cccc2)cc1.[Fe+2].c1cc[cH-]c1 | cyclic voltammetry | acetonitrile |  | reference: Ag/AgCl | Epa | 503 mV
Oc1ccc2ccccc2c1/N=N/c1ccc(/N=N/c2ccccc2)cc1 |  | extracted rat blood QC samples | 5.0 µg/L, 2 h, room temperature, short-term stability |  | measured concentration | 5.16 µg/L
Brc1ccc(Nc2nc(NN=Cc3c[nH]c4ccccc34)nc(N3CCOCC3)n2)cc1 |  | mouse liver microsomes | 0.1 µM, pH 7.4 |  | metabolic bioavailability | 20.1%
CC[C@H](C)[C@H](NC(=O)[C@H](CC(C)C)NC(=O)[C@H](Cc1c[nH]c2ccccc12)NC(=O)[C@H](C)NC(=O)[C@@H](NC(=O)[C@H](Cc1ccccc1)NC(=O)[C@H](CC(=O)O)NC(=O)[C@H](CCCNC(=N)N)NC(=O)[C@H](C)NC(=O)[C@H](C)NC(=O)[C@H](CC(C)C)NC(=O)[C@H](C)NC(=O)[C@H](CC(=O)O)NC(=O)[C@H](CC(C)C)NC(=O)[C@@H](NC(=O)[C@@H](NC(=O)[C@H](C)NC(=O)[C@H](CC(C)C)NC(=O)[C@H](CCC(=O)O)NC(=O)[C@H](CO)NC(=O)[C@H](CO)NC(=O)[C@H](Cc1ccccc1)NC(=O)[C@@H](NC(=O)CNC(=O)[C@H](CCC(=O)O)NC(=O)CNC(=O)[C@@H](N)Cc1cnc[nH]1)[C@@H](C)O)[C@@H](C)O)[C@@H](C)CC)[C@@H](C)CC)C(=O)N[C@@H](C)C(=O)N[C@H](C(=O)N[C@@H](CCCCN)C(=O)N[C@H](C(=O)N[C@H](C(=O)N[C@@H](CC(=O)O)C(=O)N[C@@H](CCCCN)C(=O)N[C@@H](CCCCN)C(=O)N[C@@H](CCCCN)C(=O)N[C@@H](CCCCN)C(=O)N[C@@H](CCCCN)C(=O)N[C@@H](CCCCN)C(N)=O)[C@@H](C)O)[C@@H](C)CC)[C@@H](C)O |  | healthy human subjects, plasma | intravenous infusion, 1 mg, 15 min infusion |  | terminal half-life | 10.4 h
CC(C)(O)c1ncc([S@](N)(=O)=NC(=O)Nc2c3c(cc4c2CCC4)CCC3)s1 |  | healthy human | oral, 10 mg once daily, day 1, capsule formulation, geometric mean |  | AUC(0-tau) | 8630 ng·h/mL
CC(C)[C@H](NC(=O)CNC(=O)[C@H](CCC(N)=O)NC(=O)[C@H](C)N)C(=O)O | LC-MS/MS | human, plasma | intravenous, 20 mg/kg three times daily, day 3, first dose, 10 min infusion, geometric mean |  | AUC(0-last) | 565 ng·h/mL
NCCCC(=O)OCC(=O)c1ccc(O)cc1F.O=C(O)C(F)(F)F | photolysis, refers to: GABA appearance | aqueous HEPES buffer with LiClO4 | pH 8.2 |  | quantum yield | 0.06
CN1C(=O)c2cccc3c2C1=Cc1ccccc1N3Cc1cccc(NC2CCN([11CH3])CC2)c1 | PET/CT | C57BL/6 mouse male, spleen | intravenous, 5 min |  | SUV | 0.31
O=C([O-])CN1CCN(CC(=O)[O-])CCN(CC(=O)NC[C@H]2CC[C@H](C(=O)N[C@H](Cc3cnc4ccccc4c3)C(=O)NCCCC[C@H](NC(=O)N[C@@H](CCC(=O)O)C(=O)O)C(=O)O)CC2)CCN(CC(=O)[O-])CC1.[64Cu+2] |  | human patient | 4 mCi |  | effective dose | 3.6 mSv
CN1C(=O)[C@@H](Cc2ccc(O)c(I)c2)NC(=O)CNC(=O)[C@H](Cc2ccc3ccccc3c2)NC(=O)[C@H](CCCNC(=N)N)NC(=O)[C@H]1CCCNC(=O)c1ccc(CNC(=O)CN2CCN(CC(=O)O)CCN(CC(=O)O)CCN(CC(=O)O)CC2)cc1 [lutetium-177 labelled] | SPECT/CT and planar imaging | human, bone marrow |  |  | absorbed organ dose | 0.97 mGy/MBq
NC12CNCCNCC(NCc3ccc(CNC(=O)CCCC(=O)NCc4ccc(-c5nncnn5)cc4)cc3)(CNCCNC1)CNCCNC2.[64Cu+2] | OLINDA dosimetry | muscle | 48 h pretargeting interval, with: huA33-TCO pretargeting |  | mean absorbed dose | 0.0163 rad/mCi

Excerpt of the above:
Compound | test | system | setting | scale | quantity | value
CN(C)c1cccc2c(S(=O)(=O)NCCCCCCC(=O)NO)cccc12 | fluorescence |  |  |  | emission wavelength | 500 nm
CCCC(CCC)NC(=O)c1ccc(OS(=O)(=O)O)c(OC)c1 |  | male Sprague-Dawley rats, plasma | oral, 200 mg/kg of parent drug | reference: 200 over 20 mg/kg dose | Cmax ratio | 3.96
COCCOCCOCCOCCC(=O)NCc1cc(CNC(=O)CCOCCOCCOCCOC)cc(-c2cc3cc4nc(c(-c5ccc(CCC(=O)O)cc5)c5[nH]c(cc6nc(c(OC)c2[nH]3)CC6(C)C)cc5-c2cc(CNC(=O)CCOCCOCCOCCOC)cc(CNC(=O)CCOCCOCCOCCOC)c2)CC4(C)C)c1 |  | water with 5% DMF | room temperature |  | B band absorption maximum | 362 nm
CCCC[C@H](NC(=O)CNC(=O)CNC(=O)CN1CCN(CC(=O)O)CCN(CC(=O)O)CC1)C(=O)N[C@H]1CC(=O)NCCCC[C@@H](C(N)=O)NC(=O)[C@H](Cc2c[nH]c3ccccc23)NC(=O)[C@H](CCCNC(=N)N)NC(=O)[C@@H](Cc2ccccc2)NC(=O)[C@H](Cc2c[nH]cn2)NC1=O [gallium-67 labelled] |  | C57 mice, B16/F1 melanoma | 24 h |  | tumour to skin uptake ratio | 8.27
CCCCn1ccc(=O)c(O)c1C |  | octanol/MOPS buffer | pH 7.4 |  | partition coefficient | 5.02
C[C@H](NC(=O)COC(=O)[C@H](C)NC(=O)CO)C(=O)O |  | water | pH 7, 65 °C |  | depolymerization half-life | 36 s
